Measurements gathered from unrelated publications.
Every numbered part comes from another study and shows a few of its results, in no order. Substitutions count along the parent as printed.

Sample 1
Target: CCND3, cyclin fold, Cln2 fusion (human)
Method: yeast growth competition, sequencing
Medium: yeast
Notes: weak parent motif
Baseline: not given
Direction: higher = stronger binding
Starting sequence: SCAPER docking peptide (human); SNARRSLNFGGST
`R4K`: “normalised enrichment score” 0.1.
`A3E` — result for “normalised enrichment score”: 0.198.
`T13C`: “normalised enrichment score” 0.169.
Under “normalised enrichment score”, `L7R` is recorded as 0.103.
For `R4C`, “normalised enrichment score” read 0.15.
`R5K F9L`: “normalised enrichment score” -0.0117.
`G11K` — result for “normalised enrichment score”: 0.297.
`S1E`: “normalised enrichment score” -0.0137.

Sample 2
Target: ATF2, bZIP domain (human)
Method: DHFR protein complementation
Medium: yeast
Notes: single substitutions, most at no-binding floor
Baseline: wild-type JUN-FOS pair
Direction: higher = stronger binding
Starting sequence: JUN, bZIP domain (human); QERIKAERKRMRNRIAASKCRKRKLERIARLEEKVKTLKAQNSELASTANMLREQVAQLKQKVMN; partner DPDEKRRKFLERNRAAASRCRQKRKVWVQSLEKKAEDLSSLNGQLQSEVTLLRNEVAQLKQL
For `E44A`, the binding fitness was -1.43 natural log.
With `K36H` the binding fitness was -1.48 natural log.
`T37M` gave a binding fitness of -0.994 natural log.
`M51N` gave a binding fitness of -1.45 natural log.
`E54V` has a binding fitness of -1.41 natural log.
`A40E` has a binding fitness of -1.37 natural log.
With `A40Q` the binding fitness was -1.42 natural log.
`A49H` gave a binding fitness of -1.5 natural log.

Sample 3
Target: TAR DNA-binding protein 43, full length, His tag (TARDBP, Homo sapiens, UniProt Q13148, residues 1-414)
Method: RNA Bind-n-Seq
Molecule type: RNA
Medium: in vitro
Tested at: 20 nM
Notes: 6-mer, flanks averaged, single round
Added: 150 mM LiCl
Baseline: input library
Direction: higher = stronger binding
Under “6-mer enrichment (R)”, `GAGAAC` is recorded as 0.951.
Under “6-mer enrichment (R)”, `CAGUCG` is recorded as 0.89.
`UAUGAG`: “6-mer enrichment (R)” 1.19.
`GUGCGA` — result for “6-mer enrichment (R)”: 1.18.
Under “6-mer enrichment (R)”, `UGAAAA` is recorded as 0.845.
`ACUCCU` — result for “6-mer enrichment (R)”: 0.971.
Under “6-mer enrichment (R)”, `UUAAUG` is recorded as 1.04.
Under “6-mer enrichment (R)”, `UUACUA` is recorded as 0.906.

Single results of other studies
`KSSLEVYIY`: binding “inactive” (HLA class I histocompatibility antigen, A alpha chain, allele A*80:01 (Homo sapiens, UniProt P04439); peptide-MHC binding; peptide; concentration not given).

Repeated from above (sample 1):
`T13C`: “normalised enrichment score” 0.169.
